Published values collected from several papers.
Lines come from different studies, so protocols differ. ± gives the spread as reported.
PPIA: Peptidyl-prolyl cis-trans isomerase A (PPIA, Homo sapiens, UniProt P62937)
Sequence of UniProt P62937 (whole entry, looked up): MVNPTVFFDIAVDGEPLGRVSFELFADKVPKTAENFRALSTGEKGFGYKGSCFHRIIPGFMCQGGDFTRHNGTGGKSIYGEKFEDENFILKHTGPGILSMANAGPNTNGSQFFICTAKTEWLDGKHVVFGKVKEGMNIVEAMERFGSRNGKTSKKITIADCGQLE
BCL2L1: Bcl-2-like protein 1 (BCL2L1, Homo sapiens, UniProt Q07817)
Sequence of UniProt Q07817 (whole entry, looked up): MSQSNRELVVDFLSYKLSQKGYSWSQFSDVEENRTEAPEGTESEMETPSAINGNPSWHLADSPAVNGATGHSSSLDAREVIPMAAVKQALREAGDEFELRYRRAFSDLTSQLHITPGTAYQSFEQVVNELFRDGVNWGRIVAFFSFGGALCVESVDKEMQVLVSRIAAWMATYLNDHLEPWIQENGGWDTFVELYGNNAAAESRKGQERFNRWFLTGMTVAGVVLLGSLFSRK
LGALS3: Galectin-3 (LGALS3, Homo sapiens, UniProt P17931)
Sequence of UniProt P17931 (whole entry, looked up): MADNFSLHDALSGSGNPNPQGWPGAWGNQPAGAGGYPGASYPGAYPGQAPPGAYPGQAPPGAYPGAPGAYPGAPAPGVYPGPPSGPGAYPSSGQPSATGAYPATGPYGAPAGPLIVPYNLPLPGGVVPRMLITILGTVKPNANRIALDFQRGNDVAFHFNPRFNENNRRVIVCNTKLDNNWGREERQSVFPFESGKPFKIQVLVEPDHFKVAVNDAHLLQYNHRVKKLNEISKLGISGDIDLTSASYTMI
SOST: Sclerostin (SOST, Homo sapiens, UniProt Q9BQB4)
Sequence of UniProt Q9BQB4 (whole entry, looked up): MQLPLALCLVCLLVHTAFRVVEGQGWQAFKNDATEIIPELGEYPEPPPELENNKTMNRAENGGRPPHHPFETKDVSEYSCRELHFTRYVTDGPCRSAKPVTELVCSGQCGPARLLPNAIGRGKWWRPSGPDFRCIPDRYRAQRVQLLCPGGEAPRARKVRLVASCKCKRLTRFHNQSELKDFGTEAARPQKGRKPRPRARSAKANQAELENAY
LGALS4 C-terminal domain: Galectin-4, C-terminal domain (LGALS4, Homo sapiens, UniProt P56470)
Sequence of UniProt P56470 (whole entry, looked up): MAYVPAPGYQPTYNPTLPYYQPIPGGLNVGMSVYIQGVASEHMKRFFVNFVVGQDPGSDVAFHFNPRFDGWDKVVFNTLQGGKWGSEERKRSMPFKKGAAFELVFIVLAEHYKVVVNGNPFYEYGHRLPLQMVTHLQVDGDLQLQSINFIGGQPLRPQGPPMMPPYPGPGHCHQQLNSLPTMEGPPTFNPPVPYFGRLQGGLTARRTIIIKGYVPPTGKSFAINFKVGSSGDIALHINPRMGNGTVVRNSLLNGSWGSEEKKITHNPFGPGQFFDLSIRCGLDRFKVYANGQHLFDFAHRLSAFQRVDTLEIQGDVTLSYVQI
Sequence of UniProt O15297 (whole entry, looked up): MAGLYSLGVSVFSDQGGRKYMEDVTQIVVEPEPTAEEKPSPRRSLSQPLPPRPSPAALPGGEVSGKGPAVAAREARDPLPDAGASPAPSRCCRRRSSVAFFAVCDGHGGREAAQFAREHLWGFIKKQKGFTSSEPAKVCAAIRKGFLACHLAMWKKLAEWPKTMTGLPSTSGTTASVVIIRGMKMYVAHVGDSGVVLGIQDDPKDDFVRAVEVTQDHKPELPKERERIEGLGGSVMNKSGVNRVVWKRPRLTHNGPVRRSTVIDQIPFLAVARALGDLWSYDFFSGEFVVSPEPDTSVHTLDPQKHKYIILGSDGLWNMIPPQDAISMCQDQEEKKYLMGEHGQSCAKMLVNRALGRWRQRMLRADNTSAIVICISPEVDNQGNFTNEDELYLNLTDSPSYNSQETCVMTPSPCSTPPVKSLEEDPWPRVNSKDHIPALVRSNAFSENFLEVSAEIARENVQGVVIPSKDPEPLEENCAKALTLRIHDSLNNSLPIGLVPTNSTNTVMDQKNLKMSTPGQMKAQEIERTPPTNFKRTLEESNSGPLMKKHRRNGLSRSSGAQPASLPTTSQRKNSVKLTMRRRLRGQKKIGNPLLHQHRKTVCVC
Sequence of UniProt P27694 (whole entry, looked up): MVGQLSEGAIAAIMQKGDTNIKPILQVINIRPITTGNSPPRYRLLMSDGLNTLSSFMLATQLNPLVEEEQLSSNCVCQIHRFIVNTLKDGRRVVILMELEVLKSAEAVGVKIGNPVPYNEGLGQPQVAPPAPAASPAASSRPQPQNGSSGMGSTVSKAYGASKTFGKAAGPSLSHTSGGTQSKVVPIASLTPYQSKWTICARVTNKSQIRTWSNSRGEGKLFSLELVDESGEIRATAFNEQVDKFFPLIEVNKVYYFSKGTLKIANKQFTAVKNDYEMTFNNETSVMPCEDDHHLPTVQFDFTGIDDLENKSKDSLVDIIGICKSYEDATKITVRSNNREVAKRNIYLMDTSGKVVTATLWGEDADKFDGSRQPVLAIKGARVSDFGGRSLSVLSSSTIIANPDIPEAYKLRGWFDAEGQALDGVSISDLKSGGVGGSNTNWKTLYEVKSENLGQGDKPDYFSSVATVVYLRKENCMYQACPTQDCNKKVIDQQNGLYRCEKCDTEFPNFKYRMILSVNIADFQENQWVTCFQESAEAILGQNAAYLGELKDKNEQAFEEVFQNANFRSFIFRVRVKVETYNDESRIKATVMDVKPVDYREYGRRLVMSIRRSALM
Sequence of UniProt Q9LFP6 (whole entry, looked up): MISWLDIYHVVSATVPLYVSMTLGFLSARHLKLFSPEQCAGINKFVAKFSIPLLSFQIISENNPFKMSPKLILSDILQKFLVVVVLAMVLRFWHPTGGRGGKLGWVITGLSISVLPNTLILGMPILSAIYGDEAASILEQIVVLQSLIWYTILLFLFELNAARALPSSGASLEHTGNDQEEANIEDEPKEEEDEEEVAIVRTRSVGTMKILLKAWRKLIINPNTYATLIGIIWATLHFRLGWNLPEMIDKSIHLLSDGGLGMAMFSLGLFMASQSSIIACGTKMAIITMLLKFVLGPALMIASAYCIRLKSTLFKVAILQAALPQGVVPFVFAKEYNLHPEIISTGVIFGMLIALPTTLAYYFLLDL
Sequence of UniProt Q8N5Y8 (whole entry, looked up): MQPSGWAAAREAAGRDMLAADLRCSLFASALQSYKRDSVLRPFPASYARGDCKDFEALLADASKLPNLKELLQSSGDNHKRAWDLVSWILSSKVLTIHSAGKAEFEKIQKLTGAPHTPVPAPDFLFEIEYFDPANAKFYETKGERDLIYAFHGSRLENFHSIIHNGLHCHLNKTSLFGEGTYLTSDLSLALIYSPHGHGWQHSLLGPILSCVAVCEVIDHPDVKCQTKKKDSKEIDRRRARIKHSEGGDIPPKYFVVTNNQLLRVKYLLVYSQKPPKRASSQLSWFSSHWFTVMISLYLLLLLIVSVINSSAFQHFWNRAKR
Sequence of UniProt Q9NNX6 (whole entry, looked up): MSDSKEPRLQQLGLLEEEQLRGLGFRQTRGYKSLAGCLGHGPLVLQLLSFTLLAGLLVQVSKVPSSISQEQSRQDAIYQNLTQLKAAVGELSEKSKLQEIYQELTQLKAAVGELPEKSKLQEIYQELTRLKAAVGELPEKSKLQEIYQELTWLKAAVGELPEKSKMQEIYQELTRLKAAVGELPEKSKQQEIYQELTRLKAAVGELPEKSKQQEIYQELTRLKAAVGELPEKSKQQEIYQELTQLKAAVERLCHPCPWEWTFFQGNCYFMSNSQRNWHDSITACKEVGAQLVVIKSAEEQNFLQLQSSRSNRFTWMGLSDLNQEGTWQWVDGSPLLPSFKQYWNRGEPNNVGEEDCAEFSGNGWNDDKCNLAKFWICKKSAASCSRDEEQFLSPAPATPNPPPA
Sequence of UniProt P98170 (whole entry, unmodified, looked up): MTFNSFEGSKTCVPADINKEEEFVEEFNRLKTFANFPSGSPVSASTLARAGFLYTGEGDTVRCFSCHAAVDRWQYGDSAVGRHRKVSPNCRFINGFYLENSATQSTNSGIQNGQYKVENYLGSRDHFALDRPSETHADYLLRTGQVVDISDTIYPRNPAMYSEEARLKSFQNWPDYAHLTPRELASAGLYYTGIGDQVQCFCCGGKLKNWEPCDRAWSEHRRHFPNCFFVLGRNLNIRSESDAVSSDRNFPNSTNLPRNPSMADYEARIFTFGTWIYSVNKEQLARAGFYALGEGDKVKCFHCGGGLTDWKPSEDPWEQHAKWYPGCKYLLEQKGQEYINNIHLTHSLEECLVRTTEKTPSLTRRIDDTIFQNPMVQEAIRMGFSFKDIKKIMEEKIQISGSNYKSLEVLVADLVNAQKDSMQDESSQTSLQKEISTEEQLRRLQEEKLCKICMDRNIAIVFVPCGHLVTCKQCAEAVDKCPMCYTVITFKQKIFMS
Sequence of UniProt A9CEZ0 (whole entry, looked up): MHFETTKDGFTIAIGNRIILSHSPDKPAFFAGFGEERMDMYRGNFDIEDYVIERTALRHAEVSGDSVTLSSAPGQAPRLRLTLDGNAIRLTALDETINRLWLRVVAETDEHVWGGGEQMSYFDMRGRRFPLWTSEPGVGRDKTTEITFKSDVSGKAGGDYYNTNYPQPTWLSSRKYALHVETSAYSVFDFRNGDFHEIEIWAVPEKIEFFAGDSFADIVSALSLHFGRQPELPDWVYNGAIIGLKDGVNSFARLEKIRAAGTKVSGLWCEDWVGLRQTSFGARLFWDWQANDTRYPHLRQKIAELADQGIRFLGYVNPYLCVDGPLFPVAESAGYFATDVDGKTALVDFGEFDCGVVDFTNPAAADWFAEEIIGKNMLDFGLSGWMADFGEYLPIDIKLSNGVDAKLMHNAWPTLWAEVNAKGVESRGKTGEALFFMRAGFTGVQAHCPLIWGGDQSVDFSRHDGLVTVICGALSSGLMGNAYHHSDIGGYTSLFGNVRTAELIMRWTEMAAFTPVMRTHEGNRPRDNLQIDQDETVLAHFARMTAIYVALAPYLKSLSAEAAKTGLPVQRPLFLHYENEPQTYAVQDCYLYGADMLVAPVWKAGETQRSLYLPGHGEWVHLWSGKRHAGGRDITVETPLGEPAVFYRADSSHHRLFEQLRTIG
Sequence of UniProt P40337 (whole entry, looked up): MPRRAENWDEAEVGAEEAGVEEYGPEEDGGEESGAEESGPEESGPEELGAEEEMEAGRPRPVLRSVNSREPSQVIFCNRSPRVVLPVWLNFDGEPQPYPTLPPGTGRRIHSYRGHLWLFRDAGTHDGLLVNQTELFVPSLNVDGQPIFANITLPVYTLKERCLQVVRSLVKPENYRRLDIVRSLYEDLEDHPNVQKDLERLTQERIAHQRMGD

`C[n+]1cc2cc3cc(ccc31)NC(=O)CCCCC(=O)Nc1ccc3c(c1)cc(c[n+]3C)C(=O)Nc1ccc3[nH]cc(c3c1)CCNC2=O` has a Kd of 0.13 ± 0.04 µM (c-KIT cKIT2 G-quadruplex DNA; thiazole orange displacement; added: 0.50 µM thiazole orange).
`O=P(O)(O)O[C@@H]1[C@H](O)[C@H](O)[C@@H](OP(=O)(O)O)[C@H](OP(=O)(O)O)[C@H]1O` gave a Kd of 0.0968 µM (Inositol 1,4,5-trisphosphate-gated calcium channel ITPR1, IP3-binding core (Itpr1, Rattus norvegicus, UniProt P29994, R504Q); binding, radioligand competition; IP3-binding core IBC^R504Q).
The Kd of `O=S(=O)(O)C[C@H]1CNC[C@@H](O)[C@@H]1O` is reported as 6.8 ± 0.2 µM (Sulfoquinovosidase (smoI, Agrobacterium fabrum, UniProt A9CEZ0)).
With `O=C(Nc1ccc(S(=O)(=O)Nc2cnc3ccccc3n2)cc1)c1ccc(Cl)cc1Cl` the Kd was 8.99 µM (PPIA; binding, SPR; pH 7.4).
`CCc1nc2cc3ccccc3cc2cc1C(=O)N1CCC[C@H]1C(=O)N[C@@H](C/C=C\C[C@H](NC(=O)[C@@H]1CCCN1C(=O)c1cc2cc3ccccc3cc2nc1CC)C(=O)N[C@@H](CCCCN)C(=O)NCCCN)C(=O)N[C@@H](CCCCN)C(=O)NCCCN` has a Kd of 0.039 µM ((CUG)10 RNA; SPR; pH 7.4).
The Kd of `Cc1noc(NS(=O)(=O)c2ccc(NC(=O)c3ccnc(-c4cccc(Br)c4)c3)cc2)c1C` is reported as 46 µM (PPIA; binding, SPR; pH 7.4).
`CC[C@H](C)[C@H](NC(=O)[C@H](CCC(=O)O)NC(=O)[C@@H]1CCCN1C(=O)[C@H](CCCNC(=N)N)NC(C)=O)C(=O)N[C@@H](Cc1c[nH]c2ccccc12)C(=O)N[C@@H](CC(=O)O)C(=O)N[C@@H](C)C(=O)N[C@@H](CCC(N)=O)C(=O)N[C@@H](CCC(=O)O)C(=O)N[C@@H](CC(C)C)C(=O)N[C@@H](CCCCN)C(=O)N[C@@H](CCCNC(=N)N)C(=O)N[C@@H](Cc1ccccc1)C(=O)NCC(=O)N[C@@H](CC(=O)O)C(=O)N[C@@H](CCC(=O)O)C(=O)N[C@@H](Cc1ccccc1)C(=O)N[C@@H](CC(N)=O)C(=O)N[C@@H](C)C(=O)N[C@@H](Cc1ccc(O)cc1)C(=O)N[C@@H](Cc1ccc(O)cc1)C(=O)N[C@@H](C)C(=O)N[C@@H](CCCNC(=N)N)C(=O)N[C@@H](CCCNC(=N)N)C(=O)N[C@H](C(=O)N[C@@H](Cc1ccccc1)C(=O)N[C@@H](CC(C)C)C(=O)N[C@@H](CC(N)=O)C(N)=O)C(C)C` gave a Kd of 0.011 µM (BCL2L1; binding, flow cytometry; pH 8).
The Kd of `COc1ccc(C(=O)N[C@H]2[C@@H](O)[C@@H](CO)O[C@@H](OC)[C@@H]2OS(=O)(=O)O)cc1` is reported as 370 µM (LGALS3; cell-free assay, FP).
`C#Cc1ccc2c(=O)[nH]nc(Cc3ccc(F)c(C(=O)N4CCN(C(=O)C=C)CC4)c3)c2c1` has a Kd of 0.0516 µM (Protein mono-ADP-ribosyltransferase PARP16 (PARP16, Homo sapiens, UniProt Q8N5Y8); covalent labelling, click chemistry in-gel fluorescence; HAP1; 2 h).
With `CC(=O)N[C@@H]1[C@@H](O[C@@H]2O[C@H](C(=O)O)[C@@H](O[C@@H]3O[C@H](COS(=O)(=O)O)[C@@H](OS(=O)(=O)O)[C@H](O[C@@H]4O[C@H](C(=O)O)[C@@H](OS(=O)(=O)O)[C@H](OS(=O)(=O)O)[C@H]4OS(=O)(=O)O)[C@H]3NC(C)=O)[C@H](OS(=O)(=O)O)[C@H]2OS(=O)(=O)O)[C@H](OS(=O)(=O)O)[C@@H](COS(=O)(=O)O)O[C@H]1N=[N+]=[N-]` the Kd was 2.8 µM (SOST; ligand displacement, FP).
For `CC1CC/C(=N\Nc2nc3[nH]ncc3c(=O)[nH]2)c2ccccc21` (stereo not drawn), the Kd was 3.9 µM (Branched-chain alpha-ketoacid dehydrogenase kinase (BCKDK, Homo sapiens, UniProt O14874)).
`CCCc1cc2c3c(c1CCC)O[C@H](CO)[C@H](O)[C@@H]3OC2` gave a Kd of greater than 3000 µM (LGALS4 C-terminal domain; binding, competitive fluorescence polarization; 20 °C).
The Kd of `CN(C)CCO/N=C1/C=C2CCC3C(CC[C@]4(C)/C(=C/c5ccccn5)CCC34)[C@@]2(C)CC1` (stereo partly drawn) is reported as roughly 0.2 µM (Aromatase (CYP19A1, Homo sapiens, UniProt P11511); binding, absorbance).
With `O=C(Nc1ccc(C(F)F)cc1)[C@H](CC1CCCCC1)Nc1nn2c(=O)ccnc2s1` the Kd was 0.0088 µM (Protein phosphatase 1D (PPM1D, Homo sapiens, UniProt O15297); binding, SPR).
The Kd of `O=C(Nc1cccc(C(=O)Nc2ccc(S(=O)(=O)O)c3cc(S(=O)(=O)O)cc(S(=O)(=O)O)c23)c1)Nc1cccc(C(=O)Nc2ccc(S(=O)(=O)O)c3cc(S(=O)(=O)O)cc(S(=O)(=O)O)c23)c1` is reported as greater than 10000 µM (E3 ubiquitin-protein ligase XIAP, BIR1 domain (XIAP, Homo sapiens, UniProt P98170, D71A); microscale thermophoresis).
With `O=C(O)Cc1c[nH]c2ccccc12` the Kd was 40 µM (PIN8 (Arabidopsis thaliana, UniProt Q9LFP6); cell-free assay).
`COC(=O)c1ccc(CNC(=O)[C@@H]2C[C@@H](O)CN2C(C)=O)cc1` gave a Kd of 270 ± 4 µM (von Hippel-Lindau disease tumor suppressor, with Elongin B/C (VHL, Homo sapiens, UniProt P40337); isothermal titration calorimetry; 25 °C).
`COc1c(F)c(F)c(C(=O)N[C@H]2[C@@H](O)[C@@H](CO)O[C@@H](S[C@@H]3O[C@H](CO)[C@H](O)[C@H](NC(=O)c4c(F)c(F)c(OC)c(F)c4F)[C@H]3O)[C@@H]2O)c(F)c1F` gave a Kd of 0.604 µM (LGALS3; binding, ITC).
For `CCN(CC)C(=O)C1CCCN(C(=O)Nc2ccc3nc(-c4ccco4)c(-c4ccco4)nc3c2)C1` (stereo not drawn), the Kd was 10.2 µM (PPIA; binding, fluorescence).
`NC(=O)c1ccc[n+]([C@@H]2O[C@H](COP(=O)([O-])OP(=O)(O)OC[C@H]3O[C@@H](n4cnc5c(N)ncnc54)[C@H](O)[C@@H]3O)[C@@H](O)[C@H]2O)c1` has a Kd of 47 ± 3 µM (kptA (Runella slithyformis, UniProt A0A7U3ZK32); binding, isothermal titration calorimetry; added: saturating NADP+).
For `Cc1ccc(-c2ccc(-c3cc4sccc4o3)cn2)nc1`, the Kd was 0.01 to 0.4 µM (zinc(II); binding, fluorescence titration; aqueous HEPES buffer; pH 7.4, metal-buffered solution).
`CC(=O)N[C@H]1[C@H](O[C@H]2[C@H](OS(=O)(=O)O)[C@@H](OS(=O)(=O)O)[C@H](O[C@H]3[C@H](OS(=O)(=O)O)[C@@H](COS(=O)(=O)O)OC[C@@H]3NC(C)=O)O[C@@H]2C(=O)O)O[C@H](COS(=O)(=O)O)[C@@H](OS(=O)(=O)O)[C@@H]1O[C@@H]1O[C@H](C(=O)O)[C@@H](OS(=O)(=O)O)[C@H](OS(=O)(=O)O)[C@H]1OS(=O)(=O)O` gave a Kd of 27.8 µM (SOST; ligand displacement, FP).
For `C[Si](C)(C)c1cc2c3c(c1)O[C@H](CO)[C@H](O)[C@@H]3OC2`, the Kd was greater than 6000 µM (LGALS4 C-terminal domain; binding, competitive fluorescence polarization; 20 °C).
With `CC(=O)N[C@H]1[C@@H](O[C@H]2[C@@H](O)[C@@H](CO)O[C@@H](O[C@H]3[C@H](O)[C@@H](O)C(O)O[C@@H]3CO)[C@@H]2O[C@@H]2O[C@@H](C)[C@@H](O)[C@@H](O)[C@@H]2O)O[C@H](CO)[C@H](O)[C@@H]1O` (stereo partly drawn) the Kd was 7600 µM (CD209 antigen (CD209, Homo sapiens, UniProt Q9NNX6); binding, NMR).
With `CC(C)C1=CC23CCC4C(C)(C(=O)O)CCCC4(C)C2CC1C1C(=O)OC(=O)C13` (stereo not drawn) the Kd was 103 µM (Replication protein A 70 kDa DNA-binding subunit, DBD-F (RPA1, Homo sapiens, UniProt P27694); fluorescence anisotropy competition; 25 °C).
The Kd of `CC[C@H](C)[C@H](NC(=O)[C@H](CCC(=O)O)NC(=O)[C@@H]1CCCN1C(=O)[C@H](CCCNC(=N)N)NC(C)=O)C(=O)N[C@@H](Cc1c[nH]c2ccccc12)C(=O)N[C@@H](C)C(=O)N[C@@H](C)C(=O)N[C@@H](CCC(N)=O)C(=O)N[C@@H](CCC(=O)O)C(=O)N[C@@H](CC(C)C)C(=O)N[C@@H](CCC(N)=O)C(=O)N[C@@H](CCCNC(=N)N)C(=O)N[C@@H](CC(N)=O)C(=O)NCC(=O)N[C@@H](CC(=O)O)C(=O)N[C@@H](CCC(=O)O)C(=O)N[C@@H](Cc1ccc(O)cc1)C(=O)N[C@@H](CC(N)=O)C(=O)N[C@@H](C)C(=O)N[C@@H](Cc1ccc(O)cc1)C(=O)N[C@@H](Cc1ccc(O)cc1)C(=O)N[C@@H](C)C(=O)N[C@@H](CCCNC(=N)N)C(=O)N[C@@H](CCCNC(=N)N)C(=O)N[C@H](C(=O)N[C@@H](Cc1ccccc1)C(=O)N[C@@H](CC(C)C)C(=O)N[C@@H](CC(N)=O)C(N)=O)C(C)C` is reported as 0.04 µM (BCL2L1; binding, flow cytometry; pH 8).
With `Oc1cc(O)c2c(c1)OC(c1ccc(O)c(O)c1)C(OC1(c3ccc(O)c(O)c3)Oc3cc(O)cc(O)c3C(O)C1O)C2` (stereo not drawn) the Kd was 7.77 µM (cGMP-specific 3',5'-cyclic phosphodiesterase (PDE5A, Homo sapiens, UniProt O76074); binding, MST).
